Measurements of several laboratories.
Parts stem from different laboratories: compare values within a part only.

Series 1
Target: RNA binding protein fox-1 homolog 2, RRM domain, GST-SBP tag (RBFOX2, Homo sapiens, UniProt O43251-10, residues 100-194)
Method: RNA Bind-n-Seq
Form: RNA
Matrix: in vitro
Concentration: 365 nM
Notes: natural RNA segment, single round, ends assumed
Reference: no-protein control
Reading: higher = stronger binding
Constant ends, left off below: GGGAGUUCUACAGUCCGACGAUC … UGGAAUUCUCGGGUGCCAA
Residues (chain): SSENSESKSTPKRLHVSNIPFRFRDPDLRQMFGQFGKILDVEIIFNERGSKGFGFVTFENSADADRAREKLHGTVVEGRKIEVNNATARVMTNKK
Oligonucleotide | RBNS enrichment (R)
GCAGGACUUUUGUAAUGUUGUCUAAAUGAGGAAACAUUUCUGUCAAAUUAGCCUAGUGAAAUCUCUGAUUGUUCAUUACAAAGGCAGCGUUCACAGCAUUGCUUCUUCUU | 0.325
ACUGGUGAGCGUUGGAACCUUGUCGUCUGGCUCCGAGCCUCUGCUGUGCGCAACAGCCUCUGUCCCAUGUGCUGCCGUGAGCCCGACCUGGUGGACGAUGAGGGCUUCGG | 0.337
UAAUAUGAUGCCACUUUGCAGCUAAAAUAAGCUCAGUGAUACCUCCUUGUUAAAAAAAAAAAAAAAAAAAAAGAAUGCCAGGGGGGAAUUAUCAUGCUAAAUUAUUUUAC | 0.948
UUAUAAACAUUUUUCAUUAUUGGAAAGUGUAACGGGGACCUUCUGCAUACCUGUUUAGAACCAAAACCACCAUGACACAGUUUUUAUAGUGUCUGUAUAUUUGUGAUGCA | 0.629
AAUACGAGUCAGAUGCUGCAGAAAUGUAAGGCACUUCAAGUCACUUAUGGGUUGGCUUGGUUUGGUUUUUCUUAGCACCACCUGGGAUCACAGAGGCUCCUAAGAUACAU | 0.33
GUACCGAUAAAAACAAAACCAAAUCCAUAUUAUACAUCAAAACCUUGUGAGACAUUCACUUGCUCUUUUGCCAUAUUUAGAUGUGUCAGUGGAAUCAGAAACCUGUUUUG | 0.417
CACUGCACUCCAGCCUGGCAACAGAGCAAGACUCCGUCUCAAAAAAGUGAAAAGAGAUUCAACCAAGAGGACAGCUCUGGAGCAGAAAAAUACAUGUUUAUAGGAUGCGA | 0.478
AUUUUUAUGCUUGACAAGUUGUAUUUUAUAUAUUAGAAAUAAGAUGCCACACAGGGCAAUCCAGAUUUAGAUUAAAGAAAGGAUACACAGACAUUAAUCUGCAACAGGUC | 0.602

Series 2
Target: Interferon regulatory factor 5, full length, phosphomimetic (IRF5, Homo sapiens, UniProt Q13568-2, residues 1-514, S451D/S453D/S456D/S462D)
Method: protein-binding microarray
Form: double-stranded DNA, one strand shown
Matrix: in vitro
Concentration: 940 nM top
Notes: 60-bp whole probe
With: salmon DNA 0.4 mg/ml
Reference: random background probes
Reading: higher = stronger binding
Constant ends, left off below: GCCTAGCAC … GTCTTGATTCGCTTGACGCTGCTG
Oligonucleotide | fitted relative affinity
TTAGATATTAGTATCGATTAGTGCTAG | 5.78 z-score
TTAGGACAGCTTTTCCTTTAGTGCTAG | -0.647 z-score
GACATCCCCAGTCTCATATTGTGCTAG | 1.14 z-score
TCACCTCTGTTTTGAGCACTGTGCTAG | 0.27 z-score
GACGGACTGGGTTTCGGGAGGTGCTAG | 2.18 z-score
TTAGGACTGGACGCTGGGTTAGTGCTA | -0.5 z-score
TCACTTTCCAATTGTCCTACTGTGCTA | 1.37 z-score
TTAGATCTCAGTCTCTATTAGTGCTAG | 0.743 z-score
GACGATTTCAGTTCCAAGACGTGCTAG | 0.776 z-score
CTGCATTTTTTTTTTCTACTGTGCTAG | 1.31 z-score
TACTTTCTATGTCTGTTTTTGTGCTAG | 4.22 z-score
TCAAAAGTCTTTTATGGTACTGTGCTA | -0.224 z-score
TCAACACTAGTTTTTACACTGTGCTAG | 0.107 z-score
TCAGTTTCGTATCTTCATTGTGTGCTA | 8.82 z-score
TTAGGTACCCTTTTCCTTTAGTGCTAG | 0.794 z-score
TTAGGATTCCTTTTCCTTTAGTGCTAG | 0.215 z-score
TTAGGTATCATTCTCCTTTAGTGCTAG | 3.22 z-score
ACATTCCATGAGCCCACTGGGTGCTAG | -0.0645 z-score
GACGGACTGGACACTGGGGAAGTGCTA | -0.428 z-score

Series 3
Target: Histone acetyltransferase KAT6A, winged helix 1, GST fusion (KAT6A, Homo sapiens, UniProt Q92794, residues 1-85)
Method: protein binding microarray
Form: double-stranded DNA, one strand shown
Matrix: in vitro
Concentration: not given
Notes: 8-mer, flanks averaged, mean of 2 arrays, mostly near background
Reference: not given
Reading: higher = stronger binding
Construct (chain): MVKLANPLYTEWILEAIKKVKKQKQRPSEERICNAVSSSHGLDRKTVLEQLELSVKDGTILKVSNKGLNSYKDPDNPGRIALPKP
Oligonucleotide | E-score
CTCGTCGC | 0.0955
ACCTCAGC | -0.0316
AGCACCCT | -0.248
ATTAACAC | -0.122
CGCTAACG | 0.291
ATTTGGTC | -0.265
CCATTGAA | -0.0995
GCGTGTCA | 0.174
CTTGCGGC | 0.192
ATCGTTCA | -0.184
ATAGACCA | -0.147
AAACAGGC | -0.0863
AGATCGCA | -0.0881
AGCTCGAT | -0.178
CATATCAG | 0.0805
ACCATGGC | -0.00558
ATCGCGAT | 0.139
GAGTGATC | -0.138
CCTCAGGA | -0.0513

Series 4
Target: Fragile X messenger ribonucleoprotein 1, C-terminal low-complexity region (Fmr1, Mus musculus, UniProt P35922)
Method: RNA Bind-n-Seq
Form: RNA
Matrix: in vitro
Concentration: 200 nM
Notes: whole 134-nt RNA, ends assumed
With: 150 mM LiCl
Reference: input library
Reading: higher = stronger binding
All molecules: 7-deaza-guanosine replaces G
Constant ends, left off below: GGGAGUUCUACAGUCCGACGAUC … UGGAAUUCUCGGGUGUCAAGG
Oligonucleotide | log2 enrichment
UCUAACUAAUUUUUCUUUGUUUUUUAACAGGAGAGGAGAUACUUACCCUUAAGUCAAGCCAGAAAAAGUGGUUUCCAAAUGGAUUGGCUG | -2.16
ACCAUGCAGGUGGGCAUCUUUGGGAAGUGAGGCAAGGGGGGGAUAGGGAGGGGGGUAACACUUUGGGAACAGGUGGUCCCAGGUCGUUUC | 1.54
UGGGAGGUGGAUUUUGUUUAUUUUUUUAGCUCAUUUCCAGGGGUGGCAAUUUUUUUUUAAUAUGUGUCAUGAAUAAAGUUGUUUUUGAAA | -0.643
GUCCUGUGCUACACAUCGUAUGUACCGAAUCAAACCCCCCCAAAUUUUUAAACCCAAAAAAGUAUUAUGUUACGCCGUUCGGAUCUGCAC | 1.36
CACAGACAACACGCACCCACACAGACACAGAGGGAAGGGGUUGGGAUGGGGACAGGGUGCACAGCAGGGCGAAAUAGGACCCCAGCCCCU | 1.75
UCCUGUGCUACACAUCGUAUGUACCGAAUCAAAUUUUUUUAAACCCAAACCCCCCCAAAAAAGUAUUAUGUUACGCCGUUCGGAUCUGCA | 1.61
UCAAGUCCUGUGCUACACAUCGUAUGUACCGAAUCGGGUGGGAAAAAGGGUGGGAAAGUAUUAUGUUACGCCGUUCGGAUCUGCACUUCC | -1.04
CCUCAAGUCCUGUGCUACACAUCGUAUGUACCGAAUCGGAAAGGAAAGGUGGAAAGUAUUAUGUUACGCCGUUCGGAUCUGCACUUCCAG | -0.563
